Measurements gathered from unrelated publications.
Each numbered part is a random draw from the data of one study; scales do not carry over between parts. Changes are numbered by the printed parent chain.

Block 1
Target: Histone acetyltransferase KAT6A, both winged helices, GST fusion (KAT6A, Homo sapiens, UniProt Q92794, residues 1-181)
Method: protein binding microarray
Form: double-stranded DNA, one strand shown
Medium: in vitro
Tested at: not given
Setting: 8-mer, flanks averaged, mean of 2 arrays, mostly near background
Baseline: not given
Direction: higher = stronger binding
Residues (chain): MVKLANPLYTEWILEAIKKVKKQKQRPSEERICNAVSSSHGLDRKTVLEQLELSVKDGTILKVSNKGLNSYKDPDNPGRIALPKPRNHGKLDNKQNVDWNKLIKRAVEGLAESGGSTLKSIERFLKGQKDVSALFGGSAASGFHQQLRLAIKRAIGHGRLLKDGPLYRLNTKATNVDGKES
| Oligonucleotide | E-score |
| --- | --- |
| CGTGAGTC | 0.0821 |
| ATTAGAAT | -0.192 |
| GGTAGGTA | -0.077 |
| GAGCACGA | -0.07 |
| AACGCATC | 0.058 |
| AGCGCTCG | 0.295 |
| CGGAATGA | 0.151 |
| ATACCTAG | -0.094 |
| CAATAGCC | -0.184 |
| AGAGATAG | -0.047 |
| CCTGAGTC | 0.0226 |
| GCCGGTAA | 0.259 |
| GACATCTC | -0.0215 |
| CGCACACG | 0.234 |
| CGCAACGC | 0.276 |
| ACTTAGCT | -0.269 |
| AGTGATGA | -0.234 |

Block 2
Target: CCNB3, cyclin fold, Cln2 fusion (human)
Method: yeast growth competition, sequencing
Medium: yeast
Setting: strong parent motif
Baseline: not given
Direction: higher = stronger binding
Starting sequence: E2F1 docking peptide (human); PPVKRRLDFETDH; partner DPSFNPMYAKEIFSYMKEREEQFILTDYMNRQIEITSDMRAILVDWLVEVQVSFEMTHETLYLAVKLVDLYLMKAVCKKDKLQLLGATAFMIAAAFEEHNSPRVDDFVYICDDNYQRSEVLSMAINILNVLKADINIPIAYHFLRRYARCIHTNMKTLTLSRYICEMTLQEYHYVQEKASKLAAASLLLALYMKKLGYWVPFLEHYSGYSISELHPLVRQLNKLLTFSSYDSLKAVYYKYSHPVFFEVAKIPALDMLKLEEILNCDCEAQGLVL
| Variant | normalised enrichment score |
| --- | --- |
| PPVKRRLDFERDH [T11R] | 2.43 |
| PPVKRRLDFETCH [D12C] | 3.24 |
| PPVKPRLDFETDH [R5P] | -0.0456 |
| PGVKRRLDFETDH [P2G] | 2.34 |
| PPKKRRLDFETDH [V3K] | -0.124 |
| PPVHRRLDFETDH [K4H] | 0.378 |
| PPVKRLLDFETDH [R6L] | 1.44 |
| PPVKRRLDNETDH [F9N] | -0.0244 |
| PPVKRRADFETDH [L7A] | 0.318 |
| PPVKRRLDFEMDH [T11M] | 2.98 |
| PPVMRRLDFETDH [K4M] | 1.25 |
| PQVKRRLDFETDH [P2Q] | 1.84 |
| PPVKIRLDFETDH [R5I] | 0.106 |
| PPVKRRLDFSTDH [E10S] | 2.9 |
| PPVKRRLDFTTDH [E10T] | 2.62 |
| PPVKARLDFETDH [R5A] | 0.326 |
| PPVKRRLYFETDH [D8Y] | 2.16 |
| PPVKTRLDFETDH [R5T] | 0.405 |
| PPVKNRLDFETDH [R5N] | 0.239 |
| PPVKRRLDGETDH [F9G] | -0.118 |
| PPIKRRLDFETDH [V3I] | 1.18 |
| PPVKRRLDPETDH [F9P] | -0.193 |
| PPVKRRLDFEHDH [T11H] | 2.56 |
| PPVKLRLDFETDH [R5L] | 0.401 |
| PPVKRRLHFETDH [D8H] | 1.9 |

Block 3
Target: Ras GTPase-activating protein-binding protein 1, full length (G3BP1, Homo sapiens, UniProt Q13283)
Chain of UniProt Q13283 (whole entry, looked up): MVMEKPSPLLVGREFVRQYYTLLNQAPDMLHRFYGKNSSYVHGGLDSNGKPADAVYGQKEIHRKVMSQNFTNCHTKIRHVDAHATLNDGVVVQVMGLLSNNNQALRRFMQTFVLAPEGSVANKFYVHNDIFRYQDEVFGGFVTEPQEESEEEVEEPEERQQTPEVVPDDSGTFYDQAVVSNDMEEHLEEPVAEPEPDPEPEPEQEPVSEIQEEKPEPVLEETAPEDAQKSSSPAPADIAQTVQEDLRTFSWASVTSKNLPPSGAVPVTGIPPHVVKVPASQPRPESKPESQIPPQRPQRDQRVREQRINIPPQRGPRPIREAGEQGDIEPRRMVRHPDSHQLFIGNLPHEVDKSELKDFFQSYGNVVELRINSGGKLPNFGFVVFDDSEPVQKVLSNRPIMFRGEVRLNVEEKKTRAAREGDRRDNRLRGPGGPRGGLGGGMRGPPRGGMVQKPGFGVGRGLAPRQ
Method: RNA Bind-n-Seq
Form: RNA
Medium: in vitro
Tested at: 200 nM
Setting: whole 134-nt RNA, ends assumed
Together with: 150 mM KCl
Baseline: input library
Direction: higher = stronger binding
Shared flanks, not repeated: GGGAGUUCUACAGUCCGACGAUC … UGGAAUUCUCGGGUGUCAAGG
| Oligonucleotide | log2 enrichment |
| --- | --- |
| UCCUGUGCUACACAUCGUAUGUACCGAAUCAAACCCCCAAACCCCCCCAAACCCCCAAAAAAGUAUUAUGUUACGCCGUUCGGAUCUGCA | -0.134 |
| UAGGAAAACCGUCUUCAGAUACAGUCCCUAAGCCCAAGAGAGCCCCAAAACAGAAGAAAGUAGUAGAGGCUGUAAACUCUGACUCGGAUU | 0.202 |
| ACCAUGCAGGUGGGCAUCUUUGGGAAGUGGGGCAAGGGGAAAAUAGGGAGGGGGGUAACACUUUGGGAACAGGUGGUCCCAGGUCGUUUC | 0.99 |
| AGUCCUGUGCUACACAUCGUAUGUACCGAAUCGGGGUUUUUGGUUUUUGGGUUUUUGGAAAGUAUUAUGUUACGCCGUUCGGAUCUGCAC | -0.859 |
| CACAGACAACACGCACCCACACAGACACAGAGGGAAGGGGUUGGGAUGGGGACAGGGUGCAGAGCAGGGCGGGGUAGGACCCCAGCCCCU | 1.83 |
| UGGCCCUGGUGGCAUGCGGGGAGGAAGAGGUGGCCUCAUGGAUCGUGGUGGUCCCGGUGGAAUGUUCAGAGUUGGCCGUGGUGGAGACAG | 0.201 |
| GUCCUGUGCUACACAUCGUAUGUACCGAAUCGGGGAGGGGUUUUUUUGGGGUUUGGGGAAAGUAUUAUGUUACGCCGUUCGGAUCUGCAC | 0.393 |
| UGGGAGGUGGAUUUUGUUUAUUUUUUUAGCUCAUUUCCAGGGGUGAGAAUUUUUUUUUAAUAUGUGUCAUGAAUAAAGUUGUUUUUGAAA | -0.3 |
| ACCAUGCAGGUGGGAAACUUUGGGAAGUGGGGCAAGGGGGGGAUAGGGAGGGGGGUAACACUUUGGGAACAGGUGGUCCCAGGUCGUUUC | 1.16 |

Block 4
Target: ABI1, truncated, D143A, DHFR fusion (Arabidopsis thaliana)
Method: DHFR PCA, deep sequencing
Medium: yeast
Setting: methotrexate growth selection, single substitutions
Together with: (+)-ABA 710 µM
Baseline: wild-type fitted maximum
Direction: higher = stronger binding
Starting sequence: PYL1, truncated, DHFR fusion (Arabidopsis thaliana); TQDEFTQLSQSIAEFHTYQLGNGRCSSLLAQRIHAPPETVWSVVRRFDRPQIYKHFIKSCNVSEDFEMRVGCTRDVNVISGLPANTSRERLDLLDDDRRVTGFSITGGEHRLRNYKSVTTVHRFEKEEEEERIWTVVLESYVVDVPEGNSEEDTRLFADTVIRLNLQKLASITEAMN
| Variant | relative binding score |
| --- | --- |
| W134M | 111% |
| R123D | 103% |
| R90G | 38.6% |
| A84F | 44.7% |
| A35S | 97.6% |
| F56T | 62.8% |
| V143E | -8.72% |
| H16E | 9.32% |
| L138R | 35.5% |
| V161D | 8.01% |
| E89L | -14.4% |
| T120C | 39.1% |
| D153H | 94.1% |
| Q31E | 85.3% |
| N61L | 99.8% |
| A35H | 36% |

Repeated from above (block 1):
| Oligonucleotide | E-score |
| --- | --- |
| CGCAACGC | 0.276 |
| CCTGAGTC | 0.0226 |
| GAGCACGA | -0.07 |
| ATTAGAAT | -0.192 |
| GACATCTC | -0.0215 |
| CGCACACG | 0.234 |
| AGCGCTCG | 0.295 |
| CGTGAGTC | 0.0821 |
| AGAGATAG | -0.047 |
| GCCGGTAA | 0.259 |
